Results of several laboratories.
Each numbered part is a random draw from the data of one study; scales do not carry over between parts. Positions count from the first letter of the parent shown.

Study 1
Target: Histone acetyltransferase KAT6A, winged helix 1, GST fusion (KAT6A, Homo sapiens, UniProt Q92794, residues 1-85)
Technique: protein binding microarray
Form: double-stranded DNA, one strand shown
Medium: in vitro
Concentration: not given
Notes: 8-mer, flanks averaged, mean of 2 arrays, mostly near background
Reference: not given
Reading: higher = stronger binding
Endpoint: E-score
Residues (chain): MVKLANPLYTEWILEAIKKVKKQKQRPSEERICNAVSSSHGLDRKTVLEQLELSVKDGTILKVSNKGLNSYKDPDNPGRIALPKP
CCACGTAC: -0.144
ATTGCTCG: -0.239
CCTACGCA: 0.0398
AGTCGAGC: -0.113
CCATCCAC: -0.228
ACGTGTCC: 0.0713
ACCTGTTG: -0.149
CTTTTCGA: -0.215
CTGCCGAA: 0.0635
ATACCACC: -0.074
ACCCACCT: -0.223
CCGATCGC: 0.225
AGCTAGAA: -0.227
GAACATTC: -0.147
CAAATCAA: -0.203
AGGGTTGG: -0.151
CGTAGTGC: 0.143
ACATGTCA: -0.092
AACCCCCT: -0.185
AGTATCTA: -0.15
CAGCCCTC: -0.194
CATGTGTC: -0.0191
ATAAACCG: 0.104

Study 2
Target: UBE2E3 UBC core domain (UniProt Q969T4)
Chain of UniProt Q969T4 (whole entry, looked up): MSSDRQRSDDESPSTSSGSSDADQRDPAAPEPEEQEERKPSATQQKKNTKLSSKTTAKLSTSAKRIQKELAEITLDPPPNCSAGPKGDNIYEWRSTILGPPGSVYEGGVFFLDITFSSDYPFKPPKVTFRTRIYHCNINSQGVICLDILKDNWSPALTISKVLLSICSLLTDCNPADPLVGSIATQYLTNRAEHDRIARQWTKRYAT
Technique: yeast two-hybrid
Medium: yeast
Notes: mostly zero background
Reference: not given
Reading: higher = stronger interaction
Endpoint: lacZ reporter activity
B1: DTX1 RING domain (UniProt Q86Y01); chain QKVKNPPDEDCTICMERLVTASGYEGVLRHKGVRPELVGRLGRCGHMYHLLCLVAMYSNGNKDGSLQCPTCKAIYGEKTGTQ
B2: TRIM22 RING domain (UniProt Q8IYM9); chain KEVKMSPQEGQKRDVCEHHGKKLQIFCKEDGKVICWVCELSQEHQGHQTFRINEVVKECQEK
B3: RNF24 RING domain (UniProt Q9Y225); chain KVKELNLHELCAVCLEDFKPRDELGICPCKHAFHRKCLIKWLEVRKVCPLCNMPVLQLAQLH
B4: ZNRF3 RING domain (UniProt Q9ULT6); chain DTLSSSSTSDCAICLEKYIDGEELRVIPCTHRFHRKCVDPWLLQHHTCPHCRHNIIEQKGNP
B5: Ltn1 RING domain (UniProt Q6A009); chain VDKRFEGVEDCMICFSVIHGFNYSLPKKACRTCKKKFHSACLYKWFTSSNKSTCPLCRETFF
B6: RNF135 RING domain (UniProt Q8IUD6); chain PVWLAEDDLGCIICQGLLDWPATLPCGHSFCRHCLEALWGARDARRWACPTCRQGAAQQPHLR
B7: RNF181 RING domain (UniProt Q9P0P0); chain VIRGSQAELKCPVCLLEFEEEETAIEMPCHHLFHSSCILPWLSKTNSCPLCRYELPTDDDTY
B8: TRIM48 RING domain (UniProt Q8IWZ4); chain ISQVFQRELTCPICMNYFIDPVTIDCGHSFCRPCFYLNWQDIPILTQCFECIKTIQQRNLKT
B1 (DTX1 RING domain): 0
ALDRLEKLLRCSRCTNILREPVCLGGCEHIFCSNCVSDCIGTGCPVCYTPAWIQDLKI (BARD1 RING domain (UniProt Q99728)): 0
B2 (TRIM22 RING domain): 0
B3 (RNF24 RING domain): 0
KLWDINAHITCRLCSGYLIDATTVTECLHTFCRSCLVKYLEENNTCPTCRIVIHQSHPLQ (PCGF3 RING domain (UniProt Q3KNV8)): 0
B4 (ZNRF3 RING domain): 0
B5 (Ltn1 RING domain): 0
B6 (RNF135 RING domain): 0
B7 (RNF181 RING domain): 8830
B8 (TRIM48 RING domain): 0
KITELNPHLMCVLCGGYFIDATTIIECLHSFCKTCIVRYLETSKYCPICDVQVHKTRPLL (BMI1 RING domain (UniProt P35226)): 0
KEQLEKHNDICAICYQDMKSAVITPCSHFFHAGCLKKWLYVQETCPLCHCHLKNSSQLP (RNF145 RING domain (UniProt Q96MT1)): 0
QLRRLQEERTCKVCLDRAVSIVFVPCGHLVCAECAPGLQLCPICRAPVRSRVRTF (BIRC7 RING domain (UniProt Q96CA5)): 0

Study 3
Target: CCND3, cyclin fold, Cln2 fusion (human)
Technique: yeast growth competition, sequencing
Medium: yeast
Notes: weak parent motif
Reference: not given
Reading: higher = stronger binding
Endpoint: normalised enrichment score
Starting sequence: SCAPER docking peptide (human); SNARRSLNFGGST
L7E: 0.191
S1P: 0.0834
S1H: 0.094
A3P: 0.155
S6Y: 0.161
S6H: 0.166
R5Y: 0.0851
S6F: 0.196
G11H: 0.147
F9L: 0.0597
R4W: 0.0226
G11M: 0.153
S12T: 0.125
L7G: 0.127
R4G: 0.103
T13I: 0.164
N8Q: 0.164
A3I: 0.229
G10D: 0.0976
N8W: 0.158
T13A: 0.147
N2W: 0.136

Study 4
Target: NFE2L2, bZIP domain (human)
Technique: DHFR protein complementation
Medium: yeast
Notes: single substitutions, most at no-binding floor
Reference: wild-type JUN-FOS pair
Reading: higher = stronger binding
Endpoint: binding fitness
Starting sequence: JUN, bZIP domain (human); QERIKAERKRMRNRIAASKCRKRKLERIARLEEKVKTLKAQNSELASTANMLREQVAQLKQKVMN; partner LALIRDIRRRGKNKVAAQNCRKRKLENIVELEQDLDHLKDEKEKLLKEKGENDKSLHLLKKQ
A49G: -1.4 natural log
V35W: -1.53 natural log
Q55A: -1.44 natural log
R30Q: -1.38 natural log
A29T: -1.46 natural log
L31R: -1.46 natural log
K36L: -1.36 natural log
T48A: -1.47 natural log
L31Q: -1.48 natural log
N42A: -1.5 natural log
V56R: -1.51 natural log
V56K: -1.53 natural log
Q41I: -1.2 natural log
M51Q: -1.6 natural log
V35C: -1.55 natural log
E32Q: -1.54 natural log
V35M: -1.5 natural log
Q55K: -1.25 natural log
R30K: -1.33 natural log
E33K: -1.16 natural log
E44T: -1.51 natural log
L59W: -1.42 natural log
A46I: -1.32 natural log
K34F: -1.17 natural log
S47G: -1.42 natural log

Study 5
Target: ABI1, truncated, D143A, DHFR fusion (Arabidopsis thaliana)
Technique: DHFR PCA, deep sequencing
Medium: yeast
Notes: methotrexate growth selection, single substitutions
With: (+)-ABA 710 µM
Reference: wild-type fitted maximum
Reading: higher = stronger binding
Endpoint: relative binding score
Starting sequence: PYL1, truncated, DHFR fusion (Arabidopsis thaliana); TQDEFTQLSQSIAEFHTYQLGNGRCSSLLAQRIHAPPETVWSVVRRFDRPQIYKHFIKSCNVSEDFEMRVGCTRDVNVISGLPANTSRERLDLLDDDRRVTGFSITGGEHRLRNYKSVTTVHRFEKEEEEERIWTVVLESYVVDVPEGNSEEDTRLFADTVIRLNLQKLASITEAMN; partner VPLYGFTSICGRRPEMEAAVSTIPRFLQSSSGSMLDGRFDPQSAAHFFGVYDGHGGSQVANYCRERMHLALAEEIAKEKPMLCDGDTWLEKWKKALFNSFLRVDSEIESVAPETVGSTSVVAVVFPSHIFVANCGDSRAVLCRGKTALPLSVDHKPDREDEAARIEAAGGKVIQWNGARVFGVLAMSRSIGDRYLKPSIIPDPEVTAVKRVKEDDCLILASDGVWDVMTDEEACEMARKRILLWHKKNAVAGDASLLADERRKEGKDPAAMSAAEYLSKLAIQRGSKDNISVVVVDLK
D75K: 100%
P37W: 78.3%
R74C: -14.7%
Q10P: 103%
H110Q: 64.7%
G21C: 94.6%
P37V: 95.9%
N165Q: 45.8%
T39C: 102%
G148E: 94.6%
A13F: 94.2%
R113Q: 108%
E4V: 107%
T154M: 87.2%
V43Y: 97.4%
G108I: 16.6%

Study 6
Target: RNA binding protein fox-1 homolog 2, RRM domain, GST-SBP tag (RBFOX2, Homo sapiens, UniProt O43251-10, residues 100-194)
Technique: RNA Bind-n-Seq
Form: RNA
Medium: in vitro
Concentration: 365 nM
Notes: natural RNA segment, single round, ends assumed
Reference: no-protein control
Reading: higher = stronger binding
Endpoint: RBNS enrichment (R)
Target sequence (chain): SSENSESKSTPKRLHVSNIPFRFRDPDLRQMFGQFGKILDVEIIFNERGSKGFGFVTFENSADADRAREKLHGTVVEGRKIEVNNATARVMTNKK
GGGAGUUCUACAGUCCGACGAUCGUUACAGAUCCAAAGACAUAGAGUGAUGUGGGUGUCAGGAGACUGAAGAGAGGUGAAAGGCACACUUUCAACCUGUCAUUCAGCGUUUCUUUUGAGCUUAGUCAGCUGUAUGGAAUUCUCGGGUGCCAA: 0.275
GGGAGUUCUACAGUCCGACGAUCGGGAAGGGUCAAAGUGUGGACAUUGAGAAGAGGAGAGGAAAGGAGCAAGAGCUGAACUCCUGCUGCCUGGUAGGCCCCACAAGGCCUAGUCUGGAAGCGUAUGGAAUCAGUGGAAUUCUCGGGUGCCAA: 1.03
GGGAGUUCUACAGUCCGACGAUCAGUCCUAUAUCUUCAUUCAGCAACCCAAAUAUUACAUACAUUUCCAGAAUUUUCUUGAUUGUUACUUUCAGUGAUAUUCUUUAUAUUGGGUACAGGAGAAGUUUGGUGUUUGGAAUUCUCGGGUGCCAA: 0.456
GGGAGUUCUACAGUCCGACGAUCGGGUGCCAGUUUUUUAAUCACUAUAGCCCUUGGGAAGGCUUGGGCUAUUUACUGGGCGGUAAAAGGGGUUUACCUCUCACCUUUGGUCAUUCCUAAGUUCCUAUCUCCUUUGGAAUUCUCGGGUGCCAA: 0.36
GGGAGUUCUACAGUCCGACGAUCCAUCAUUGAAGUGUUGGGAUAUGAAUACAUUCCAGAGCAUAGCCUUUUGUAAUUUUAGGUAGUUAUCAGUUUCUCCACUAGCUCCAUGUUCUAGCUUUUUCCUCCCCACAUGGAAUUCUCGGGUGCCAA: 0.832
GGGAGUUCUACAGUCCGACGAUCAAGGGUUUCAGAACAGAGCCACGGGACUGGUAGGAAGAGGAGAUCCACAAAUGCUGUAUACAGGCUGUACCGCUGCUUCAAACCCCACUUGUCCAGUGCUUCACAGUGUUUGGAAUUCUCGGGUGCCAA: 0.516
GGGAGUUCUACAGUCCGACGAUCGCCUAAUUCAGUUCCAGCUCUCACUCUACUCACCCAUGCCUCUAGCUGCACAAUGUUAUGGCACUACGGGAGAGGCGAGGAAGGAGACGUGAGAUCAACAAAUGAGACCCUGGAAUUCUCGGGUGCCAA: 0.697
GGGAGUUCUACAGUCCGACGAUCGAGACACGGGGAUUUGGGGUUCUCUGCUUGAAUGUCUUCUCCUUUACCACCUCACCUUGUUGGUACCUCCCUCCCUGGAUCUCUGAGCCAGCAGCCAGGAGGACCUGACCUGGAAUUCUCGGGUGCCAA: 0.628
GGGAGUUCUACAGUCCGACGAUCACCAUGCAUGACUCAGAUGCCCUCAGGUCCCUUUCUCUAUGGUAUGUAUACUGCUUGUGUUUGGGUUGAAGCACUACCUGACAUUAAAGGAAGGACUUGGAGAGAGAAUGUGGAAUUCUCGGGUGCCAA: 22.6
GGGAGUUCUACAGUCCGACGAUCCUGGAAGAGAGUGGAACACCUUGGGUCCUGCCUGUUCAGGGUACUGAGGCCAAGAUGAGAAGUGACUCUCUCAAGGUCACACAGAUAGUGAUAGAACAAGAGCCCAGGCUUGGAAUUCUCGGGUGCCAA: 0.209
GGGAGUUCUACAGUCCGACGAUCCCCCCUGGGCUGACCAAAAUGUGCUUUCUACUGUGAGUCCCUAUCCCAAGAUCCUGGGGAAAGGAGAGACCAUGGUGUGAAUGUAGAGAUGCCACCUCCCUCUCUCUGAGUGGAAUUCUCGGGUGCCAA: 0.707
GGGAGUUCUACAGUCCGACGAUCCCUUUCUUCAGACUCCGUCCAAGGAGAUGCUCUCCCCGGUCUUCUGCUGCAGAUAGGAUCCUUCCCUUGUCUCCAUUCCUCUCCUCCCAAAGGGAGAGGGGCAAAUGGUUUGGAAUUCUCGGGUGCCAA: 0.22
